Experimental data pooled from the literature.
Protocols differ between the studies behind these lines. ± gives the spread as reported.
MAP2K1: MAP2K1 (Homo sapiens, UniProt Q02750)
B1: Lep (Mus musculus, UniProt P41160); sequence looked up; chain VPIQKVQDDTKTLIKTIVTRINDISHTQSVSAKQRVTGLDFIPGLHPILSLSKMDQTLAVYQQVLTSLPSQNVLQIANDLENLRDLLHLLAFSKSCSLPQTSGLQKPESLDGVLEASLYSTEVVALSRLQGSLQDILQQLDVSPEC
B2: BRAF 442-724 (Homo sapiens, UniProt P15056); sequence looked up; chain GRRDSSDDWEIPDGQITVGQRIGSGSFGTVYKGKWHGDVAVKMLNVTAPTPQQLQAFKNEVGVLRKTRHVNILLFMGYSTKPQLAIVTQWCEGSSLYHHLHIIETKFEMIKLIDIARQTAQGMDYLHAKSIIHRDLKSNNIFLHEDLTVKIGDFGLATVKSRWSGSHQFEQLSGSILWMAPEVIRMQDKNPYSFQSDVYAFGIVLYELMTGQLPYSNINNRDQIIFMVGRGYLSPDLSKVRSNCPKAMKRLMAECLKKKRDERPLFPQILASIELLARSLPKI
B3: C1s CCP2-SP domains; glycosylated; chain 1 VDCGIPESIENGKVEDPESTLFGSVIRYTCEEPYYYMENGGGGEYHCAGNGSWVNEVLGPELPKCVPVCGVPREPFEEKQR; chain 2 IIGGSDADIKNFPWQVFFDNPWAGGALINEYWVLTAAHVVEGNREPTMYVGSTSVQTSRLAKSKMLTPEHVFIHPGWKLLEVPEGRTNFDNDIALVRLKDPVKMGPTVSPICLPGTSSDYNLMDGDLGLISGWGRTEKRDRAVRLKAARLPVAPLRKCKEVKVEKPTADAEAYVFTPNMICAGGEKGMDSCKGDAGGAFAVQDPNDKTKFYAAGLVSWGPQCGTYGLYTRVKNYVDWIMKTMQENSTPRED
B4: ANGPT1 283-498 A451D (Homo sapiens, UniProt Q15389); chain FRDCADVYQAGFNKSGIYTIYINNMPEPKKVFCNMDVNGGGWTVIQHREDGSLDFQRGWKEYKMGFGNPSGEYWLGNEFIFAITSQRQYMLRIELMDWEGNRAYSQYDRFHIGNEKQNYRLYLKGHTGTAGKQSSLILHGADFSTKDADNDNCMCKCALMLTGGWWFDDCGPSNLNGMFYTAGQNHGKLNGIKWHYFKGPSYSLRSTTMMIRPLDF
B5: PUX5 345-421 (Arabidopsis thaliana, UniProt Q7Y175); chain APTTSIQLRLADGTRLVSRFNNHHTVRDVRGFIDASRPGGSKEYQLLTMGFPPKQLTELDQTIEQAGIANAVVIQKF
B6: BRAF kinase 448-723 K723G/P722S/S720E/L716E/S713E/Q709R/L706S/A688R/Y673S/F667Y/K630S/V600E/L588N/Q562R (Homo sapiens, UniProt P15056); sequence looked up; chain DDWEIPDGQITVGQRIGSGSFGTVYKGKWHGDVAVKMLNVTAPTPQQLQAFKNEVGVLRKTRHVNILLFMGYSTKPQLAIVTQWCEGSSLYHHLHASETKFEMKKLIDIARQTARGMDYLHAKSIIHRDLKSNNIFLHEDNTVKIGDFGLATEKSRWSGSHQFEQLSGSILWMAPEVIRMQDSNPYSFQSDVYAFGIVLYELMTGQLPYSNINNRDQIIYMVGRGSLSPDLSKVRSNCPKRMKRLMAECLKKKRDERPSFPRILAEIEELARELSG
Sequence of UniProt Q02763 (whole entry, looked up): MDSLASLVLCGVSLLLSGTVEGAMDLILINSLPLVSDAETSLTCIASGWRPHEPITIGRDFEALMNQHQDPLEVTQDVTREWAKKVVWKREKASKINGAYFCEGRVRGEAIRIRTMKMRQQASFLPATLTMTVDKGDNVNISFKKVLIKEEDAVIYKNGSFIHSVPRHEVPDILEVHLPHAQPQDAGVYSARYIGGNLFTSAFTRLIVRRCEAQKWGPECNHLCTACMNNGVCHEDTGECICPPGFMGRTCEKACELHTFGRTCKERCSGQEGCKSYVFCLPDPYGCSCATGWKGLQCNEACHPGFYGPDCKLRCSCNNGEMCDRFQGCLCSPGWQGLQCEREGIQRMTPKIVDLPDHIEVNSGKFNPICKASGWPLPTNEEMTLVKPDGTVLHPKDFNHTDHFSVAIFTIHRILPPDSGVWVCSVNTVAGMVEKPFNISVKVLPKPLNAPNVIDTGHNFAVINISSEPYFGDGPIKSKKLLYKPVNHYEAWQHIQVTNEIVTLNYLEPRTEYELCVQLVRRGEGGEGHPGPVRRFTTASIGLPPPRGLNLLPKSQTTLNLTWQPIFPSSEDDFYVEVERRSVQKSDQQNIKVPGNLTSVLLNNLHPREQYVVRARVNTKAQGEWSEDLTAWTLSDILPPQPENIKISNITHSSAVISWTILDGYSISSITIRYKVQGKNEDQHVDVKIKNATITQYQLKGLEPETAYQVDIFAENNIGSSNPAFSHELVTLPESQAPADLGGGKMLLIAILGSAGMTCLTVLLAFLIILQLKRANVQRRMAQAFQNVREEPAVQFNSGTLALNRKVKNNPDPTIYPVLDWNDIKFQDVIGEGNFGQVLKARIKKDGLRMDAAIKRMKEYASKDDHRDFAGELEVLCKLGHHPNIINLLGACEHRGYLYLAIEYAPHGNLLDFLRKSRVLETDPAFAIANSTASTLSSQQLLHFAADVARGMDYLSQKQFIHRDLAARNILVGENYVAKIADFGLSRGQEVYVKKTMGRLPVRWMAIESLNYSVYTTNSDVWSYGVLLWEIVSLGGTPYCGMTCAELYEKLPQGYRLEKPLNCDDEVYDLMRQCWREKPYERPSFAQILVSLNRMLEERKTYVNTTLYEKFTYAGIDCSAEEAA
Sequence of UniProt P48356 (whole entry, unmodified, looked up): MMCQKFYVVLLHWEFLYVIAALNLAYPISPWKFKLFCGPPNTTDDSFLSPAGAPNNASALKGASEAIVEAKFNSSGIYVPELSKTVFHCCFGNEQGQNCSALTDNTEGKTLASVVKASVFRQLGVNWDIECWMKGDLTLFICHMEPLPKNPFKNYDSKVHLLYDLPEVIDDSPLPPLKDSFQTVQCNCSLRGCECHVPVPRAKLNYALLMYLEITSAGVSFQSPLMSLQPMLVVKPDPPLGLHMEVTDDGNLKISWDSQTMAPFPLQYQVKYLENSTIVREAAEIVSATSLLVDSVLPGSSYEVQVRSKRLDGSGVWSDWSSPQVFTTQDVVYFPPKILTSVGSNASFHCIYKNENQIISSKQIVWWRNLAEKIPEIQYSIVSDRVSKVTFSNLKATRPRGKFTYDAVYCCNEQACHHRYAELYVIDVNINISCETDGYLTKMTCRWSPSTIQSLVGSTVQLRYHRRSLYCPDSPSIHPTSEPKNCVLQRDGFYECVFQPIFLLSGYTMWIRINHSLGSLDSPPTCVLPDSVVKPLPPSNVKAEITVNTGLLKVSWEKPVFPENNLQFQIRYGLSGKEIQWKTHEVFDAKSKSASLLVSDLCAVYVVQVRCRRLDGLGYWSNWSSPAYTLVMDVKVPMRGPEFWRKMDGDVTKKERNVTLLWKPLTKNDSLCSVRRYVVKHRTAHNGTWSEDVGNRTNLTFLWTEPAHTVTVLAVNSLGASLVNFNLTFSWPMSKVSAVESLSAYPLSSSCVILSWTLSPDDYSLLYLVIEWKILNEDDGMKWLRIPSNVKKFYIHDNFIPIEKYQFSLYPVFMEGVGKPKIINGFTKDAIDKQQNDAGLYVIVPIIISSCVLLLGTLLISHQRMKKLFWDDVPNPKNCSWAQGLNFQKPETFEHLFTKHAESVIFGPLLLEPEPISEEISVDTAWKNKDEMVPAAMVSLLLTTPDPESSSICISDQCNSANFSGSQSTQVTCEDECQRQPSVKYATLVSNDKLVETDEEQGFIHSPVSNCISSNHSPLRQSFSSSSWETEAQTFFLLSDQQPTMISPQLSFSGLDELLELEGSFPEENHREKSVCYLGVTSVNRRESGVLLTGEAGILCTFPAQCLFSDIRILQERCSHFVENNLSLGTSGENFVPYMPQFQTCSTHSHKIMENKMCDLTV
Sequence of UniProt P54609 (whole entry, looked up): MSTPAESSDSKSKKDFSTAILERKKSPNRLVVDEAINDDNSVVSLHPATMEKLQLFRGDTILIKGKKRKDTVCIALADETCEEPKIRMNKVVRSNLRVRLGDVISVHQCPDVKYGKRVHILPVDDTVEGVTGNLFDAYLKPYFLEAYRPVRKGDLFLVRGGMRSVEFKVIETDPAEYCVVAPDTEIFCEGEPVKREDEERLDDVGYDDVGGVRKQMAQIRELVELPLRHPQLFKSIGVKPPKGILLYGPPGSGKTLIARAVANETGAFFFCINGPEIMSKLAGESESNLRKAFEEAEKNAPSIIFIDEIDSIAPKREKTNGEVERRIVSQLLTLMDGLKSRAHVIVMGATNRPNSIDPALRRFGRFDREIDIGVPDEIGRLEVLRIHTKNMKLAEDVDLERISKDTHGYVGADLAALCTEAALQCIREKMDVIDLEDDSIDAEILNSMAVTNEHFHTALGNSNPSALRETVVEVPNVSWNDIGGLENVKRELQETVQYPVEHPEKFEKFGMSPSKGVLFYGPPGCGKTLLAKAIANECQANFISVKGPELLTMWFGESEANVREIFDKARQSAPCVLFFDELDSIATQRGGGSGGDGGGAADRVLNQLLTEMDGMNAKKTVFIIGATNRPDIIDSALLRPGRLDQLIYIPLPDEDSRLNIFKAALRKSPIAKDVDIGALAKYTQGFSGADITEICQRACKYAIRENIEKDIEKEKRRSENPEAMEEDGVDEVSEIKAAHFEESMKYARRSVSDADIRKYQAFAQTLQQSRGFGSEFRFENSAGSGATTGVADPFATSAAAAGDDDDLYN
Sequence of UniProt P05155 (whole entry, looked up): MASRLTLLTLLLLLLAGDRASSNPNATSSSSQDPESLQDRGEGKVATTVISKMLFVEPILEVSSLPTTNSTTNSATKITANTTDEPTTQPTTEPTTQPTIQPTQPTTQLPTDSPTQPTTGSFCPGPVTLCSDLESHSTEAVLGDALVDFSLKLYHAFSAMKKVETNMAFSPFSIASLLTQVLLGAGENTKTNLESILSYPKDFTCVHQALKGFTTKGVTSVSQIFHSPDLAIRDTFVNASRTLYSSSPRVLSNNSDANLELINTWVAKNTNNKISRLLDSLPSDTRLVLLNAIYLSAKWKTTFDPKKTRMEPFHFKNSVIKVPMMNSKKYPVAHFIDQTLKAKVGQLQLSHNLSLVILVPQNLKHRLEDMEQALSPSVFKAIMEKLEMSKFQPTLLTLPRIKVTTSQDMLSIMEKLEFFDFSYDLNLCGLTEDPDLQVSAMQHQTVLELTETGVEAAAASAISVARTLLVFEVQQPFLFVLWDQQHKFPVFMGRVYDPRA
Sequence of UniProt P97287 (whole entry, looked up): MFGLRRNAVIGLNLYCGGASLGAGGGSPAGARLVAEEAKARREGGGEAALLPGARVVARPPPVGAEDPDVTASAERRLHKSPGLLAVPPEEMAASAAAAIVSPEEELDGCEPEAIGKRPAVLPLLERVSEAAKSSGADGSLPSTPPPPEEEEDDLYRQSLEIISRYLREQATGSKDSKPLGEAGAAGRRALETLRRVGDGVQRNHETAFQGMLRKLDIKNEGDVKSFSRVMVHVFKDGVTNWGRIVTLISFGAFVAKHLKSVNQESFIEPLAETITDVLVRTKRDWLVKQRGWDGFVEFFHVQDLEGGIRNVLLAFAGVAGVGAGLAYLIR

Molecule	target or system	test	system	conditions	scale	endpoint	value
GSGAGPETLV	human MAGI1-3/6 PDZ construct (MBP fusion)	automated holdup	peptide, purified PDZ protein	concentration not given, unit not given	baseline: biotin control resin, higher = stronger binding	binding intensity	0.472
CALLLSAPRR (GOT2 (Gallus gallus); fluorescein label)	HSPA9 mature G489E (Homo sapiens, UniProt P38646)	FP	peptide			koff	0.00533 s⁻¹
B1 (Lep)	Lepr 22-839 (Mus musculus, UniProt P48356)	SPR				koff	0.033 s⁻¹
B2 (BRAF 442-724)	MAP2K1	BLI				koff	0.00411 s⁻¹
GSGAGSETKM	human MAGI1-3/6 PDZ construct (MBP fusion)	automated holdup	peptide, purified PDZ protein	concentration not given, unit not given	baseline: biotin control resin, higher = stronger binding	binding intensity	-0.159
EEEWAREAGAQLRRAADDLNAQYERRR (PUMA residues 130-156 M144A/I137A; N-acetyl, C-terminal amide)	Mcl1 152-308 (Mus musculus, UniProt P97287)	SPR	peptide			koff	0.0138 ± 0.0005 s⁻¹
B3 (C1s CCP2-SP domains)	SERPING1 111-500 (Homo sapiens, UniProt P05155)	SPR		added: Ca2+		koff	0.163 s⁻¹
B4 (ANGPT1 283-498 A451D)	TEK 23-748 (Homo sapiens, UniProt Q02763)	SPR				koff	0.102 s⁻¹
B5 (PUX5 345-421)	CDC48A 1-190 (Arabidopsis thaliana, UniProt P54609)	BLI		25 °C		koff	0.13 ± 0.01 s⁻¹
B6	MAP2K1	BLI				koff	0.00055 s⁻¹
ptsH fragment (Escherichia coli) (sequence not shown)	ptsI fragment (Escherichia coli)	NMR relaxation dispersion				koff	8900 s⁻¹

Excerpt of the above:
Molecule	target or system	test	system	conditions	scale	endpoint	value
CALLLSAPRR (GOT2 (Gallus gallus); fluorescein label)	HSPA9 mature G489E (Homo sapiens, UniProt P38646)	FP	peptide			koff	0.00533 s⁻¹
B6	MAP2K1	BLI				koff	0.00055 s⁻¹
